Measured values pooled from the literature.
Numbered parts are unrelated; each lists some results of a single study.

Study 1
Target: Interferon regulatory factor 5, full length, phosphomimetic (IRF5, Homo sapiens, UniProt Q13568-2, residues 1-514, K96S/S451D/S453D/S456D/S462D)
Method: protein-binding microarray
Form: double-stranded DNA, one strand shown
Medium: in vitro
Tested at: 250 nM
Notes: 60-bp whole probe
With: salmon DNA 0.4 mg/ml
Baseline: random background probes
Direction: higher = stronger binding
Constant ends, left off below: GCCTAGCAC … GTCTTGATTCGCTTGACGCTGCTG
Oligonucleotide	log fluorescence [z-score]
TTGGAACTGGGGTATCGATTAGTGCTA	2.41
GACGGGTTCGACACTGGGGACGTGCTA	-0.458
TCATCTCCAGGGTTTCTCACTGTGCTA	-0.00967
GACGATTTCAGTAGCGAGACGTGCTAG	1.09
CAGGCAGGAGAAGTGAATGAGTGCTAG	-0.412
GACGGTTTCGACTTTCGGGGCGTGCTA	7.31

Study 2
Target: Ras GTPase-activating protein-binding protein 1, full length (G3BP1, Homo sapiens, UniProt Q13283)
Sequence of UniProt Q13283 (whole entry, looked up): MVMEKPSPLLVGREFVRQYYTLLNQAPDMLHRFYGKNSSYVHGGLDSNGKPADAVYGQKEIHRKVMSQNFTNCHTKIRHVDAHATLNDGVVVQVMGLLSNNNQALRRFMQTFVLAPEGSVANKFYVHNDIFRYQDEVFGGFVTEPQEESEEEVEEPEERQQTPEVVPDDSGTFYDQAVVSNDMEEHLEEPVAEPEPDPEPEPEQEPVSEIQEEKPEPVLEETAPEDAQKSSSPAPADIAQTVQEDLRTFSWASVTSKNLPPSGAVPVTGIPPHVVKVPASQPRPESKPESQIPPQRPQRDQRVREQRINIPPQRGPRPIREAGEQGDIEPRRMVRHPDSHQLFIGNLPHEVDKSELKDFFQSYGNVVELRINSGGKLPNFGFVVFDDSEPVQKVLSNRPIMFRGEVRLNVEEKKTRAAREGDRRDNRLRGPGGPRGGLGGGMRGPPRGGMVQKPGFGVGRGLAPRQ
Method: RNA Bind-n-Seq
Form: RNA
Medium: in vitro
Tested at: 200 nM
Notes: whole 134-nt RNA, ends assumed
With: 150 mM KCl
Baseline: input library
Direction: higher = stronger binding
Constant ends, left off below: GGGAGUUCUACAGUCCGACGAUC … UGGAAUUCUCGGGUGUCAAGG
Oligonucleotide	log2 enrichment
GCAGGAAGUAAAAACAAAUGGAAAUGCUUCGGAUAGUGGCAGGGUUGGGGGUUGCUAAGGAAAGGGUGGGAUGGGAGUGGGUAAAGAGUU	0.82
UCCUGUGCUACACAUCGUAUGUACCGAAUCGGGUUUUUUUGGUUUUUUUGGUUUUUUUGGAAAGUAUUAUGUUACGCCGUUCGGAUCUGC	-0.438
CAAGUCCUGUGCUACACAUCGUAUGUACCGAAUCGUGUGUGUGUGUGUGUGUGUGAAAGUAUUAUGUUACGCCGUUCGGAUCUGCACUUC	0.488
UUUUUGAAUCAAUUUUUAAAACAUGCCAUUGUGUUUCAGGCUCGCGGGAUUGAUGUGCAACAAGUGUCUUUGGUUAUAAAUUAUGAUCUA	-0.437
AAGUCCUGUGCUACACAUCGUAUGUACCGAAUCGGUUUUUUUGGAAAAAAAGGAGGAAAGUAUUAUGUUACGCCGUUCGGAUCUGCACUU	-1.25

Study 3
Target: RNA binding protein fox-1 homolog 2, RRM domain, GST-SBP tag (RBFOX2, Homo sapiens, UniProt O43251-10, residues 100-194)
Method: RNA Bind-n-Seq
Form: RNA
Medium: in vitro
Tested at: 365 nM
Notes: natural RNA segment, single round, ends assumed
Baseline: no-protein control
Direction: higher = stronger binding
Constant ends, left off below: GGGAGUUCUACAGUCCGACGAUC … UGGAAUUCUCGGGUGCCAA
Target sequence (chain): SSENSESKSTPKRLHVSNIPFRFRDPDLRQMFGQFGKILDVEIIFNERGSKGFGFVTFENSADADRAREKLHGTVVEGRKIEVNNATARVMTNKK
Oligonucleotide	RBNS enrichment (R)
CAUUUUCUAAACAAAAAAAAUGGUUUUUUUCUUUGCCUUGUAAUAAGAUUGUAAAUCCAUUUCCUGCUUGUGUUCUUAGUGGGCAUGAUUGUGAGUGUGUGUGGGGUGCU	3.83
ACCAGGAGGUGGGACAGACCAUCCCCGUCUUCGCCUUCCUCGGAGCCAUGGUGGCCCUGGCCUUCUUUGUGGUACAGAUCAGCAAGGCCAAGAGCCGGCCGAAGCGGAGG	0.432
UAAAAUACUUAAGACGGUUUCUGAUUUUUCCACUAUUUAAAUAAUGCUGUGAUGAAUAUCUUUAAAAUCUUCUGAUUUCUUACUUUUUUCCCCCUUAGAUGCCUGGAAGU	0.66
GCUGGGGCCAUGCCGAGUCGCGGCCCUGCUCAGCCGGAAGAGGCUCCCGGACCUGGAUGUACAGGGCAGUCUCUCUUCCCGGGGCUAUGGCUGGGCCUGUCCUGCCGUCA	0.554
AAGAAGAGGCCUGGUAAUGGCCCCUCCUCCUGGGACCCCUUCGUCCUCUCCUUACCCCACCUCCUGGGUACAGCCCAGGAGGACCUUGUGUGAUCAGACCAUUGAAACCA	0.176
UGCAAAGAAGACUAUAGUUUCAGGCAGAAAAUCACGUCCAAAGAAUUUGGCAUGGAUUAAACAACCUCUACCACACUAUAGCUCUCACAUAGGCUGAACAUUUUCCUAAA	0.276
UGCAGGCUCCUACUGCCCAUGCUGUGGCUGGAUUAAACAGCACGGGGUCUGAUAGAAAACGGGACUGCUCUGCACCAACAGCCUGUCACAGACAGGACAGCUGGACCACA	0.425

Further values, each from its own experiment
Substance	target	assay	test system	conditions	scale	quantity	value
PhoQ, residues 284 288 289 292 302 303 SCKMEA	PhoP, residues 12 14 15 18 19 GQALL (Escherichia coli, UniProt P23836)	Sort-seq, measured: YFP reporter	E. coli	PhoQ-PhoP variant library, with: 10 µM Mg2+	baseline: high Mg2+ state, higher = stronger signaling	fold induction	3.33

A few entries again (study 3):
Oligonucleotide	RBNS enrichment (R)
AAGAAGAGGCCUGGUAAUGGCCCCUCCUCCUGGGACCCCUUCGUCCUCUCCUUACCCCACCUCCUGGGUACAGCCCAGGAGGACCUUGUGUGAUCAGACCAUUGAAACCA	0.176
UGCAAAGAAGACUAUAGUUUCAGGCAGAAAAUCACGUCCAAAGAAUUUGGCAUGGAUUAAACAACCUCUACCACACUAUAGCUCUCACAUAGGCUGAACAUUUUCCUAAA	0.276
